Measurements gathered from unrelated publications.
Lines come from different studies, so protocols differ. Several values in a cell are separate wells, animals, samples, runs or records. ± gives the spread as reported.
UniProt O60307, sequence (whole entry, looked up): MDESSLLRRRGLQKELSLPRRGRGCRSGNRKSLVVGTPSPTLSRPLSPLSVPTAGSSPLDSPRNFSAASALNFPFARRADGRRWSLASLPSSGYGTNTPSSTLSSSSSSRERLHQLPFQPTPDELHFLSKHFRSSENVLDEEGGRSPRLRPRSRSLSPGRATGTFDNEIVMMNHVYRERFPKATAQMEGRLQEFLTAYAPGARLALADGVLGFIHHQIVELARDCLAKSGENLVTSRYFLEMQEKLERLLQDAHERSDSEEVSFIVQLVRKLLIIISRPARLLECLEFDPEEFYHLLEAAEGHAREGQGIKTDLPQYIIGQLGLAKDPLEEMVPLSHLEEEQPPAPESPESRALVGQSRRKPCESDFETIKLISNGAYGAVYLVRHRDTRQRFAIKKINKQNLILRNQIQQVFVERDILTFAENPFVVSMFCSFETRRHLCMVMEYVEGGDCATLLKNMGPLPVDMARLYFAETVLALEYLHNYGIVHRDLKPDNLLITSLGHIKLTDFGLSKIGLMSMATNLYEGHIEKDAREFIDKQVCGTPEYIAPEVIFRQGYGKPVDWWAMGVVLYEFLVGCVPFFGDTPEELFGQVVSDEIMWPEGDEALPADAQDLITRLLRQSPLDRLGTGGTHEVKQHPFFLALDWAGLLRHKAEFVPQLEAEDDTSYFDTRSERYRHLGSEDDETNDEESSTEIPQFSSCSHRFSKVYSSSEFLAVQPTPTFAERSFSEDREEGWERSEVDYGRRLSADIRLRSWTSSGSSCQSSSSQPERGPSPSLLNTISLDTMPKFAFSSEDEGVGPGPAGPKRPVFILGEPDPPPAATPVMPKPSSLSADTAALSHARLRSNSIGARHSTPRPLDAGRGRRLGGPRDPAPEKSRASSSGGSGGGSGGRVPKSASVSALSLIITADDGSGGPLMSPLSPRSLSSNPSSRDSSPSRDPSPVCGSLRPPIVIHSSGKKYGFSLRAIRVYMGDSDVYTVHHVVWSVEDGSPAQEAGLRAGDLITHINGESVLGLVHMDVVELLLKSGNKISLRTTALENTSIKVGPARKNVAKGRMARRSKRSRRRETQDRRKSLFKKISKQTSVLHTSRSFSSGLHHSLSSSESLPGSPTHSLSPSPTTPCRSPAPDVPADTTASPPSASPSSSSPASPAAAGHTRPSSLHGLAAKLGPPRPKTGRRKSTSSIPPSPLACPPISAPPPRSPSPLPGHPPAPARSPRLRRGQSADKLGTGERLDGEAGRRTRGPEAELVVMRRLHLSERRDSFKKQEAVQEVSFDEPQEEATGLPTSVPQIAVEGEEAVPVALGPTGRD

CN1Cc2cc(Cl)ccc2-n2c(nnc2C2CCN(c3cccc(F)n3)CC2)C1 — concentration (male Sprague-Dawley rat, plasma; intravenous, 0.03 mg/kg, 1 h): 1.87 ng/mL
COc1ccccc1-c1n[nH]c2nc(NC3CCN(C(=O)Cc4ccc(F)cc4F)CC3)ncc12 — relative abundance (bead binding, competition bead pull-down, refers to: LMJF.30.0120; Leishmania donovani axenic amastigote extract; 10 µM; reference: vehicle): 1.14
CCCCC[C@H]1C(=O)N[C@H](C)C(=O)N(C)[C@@H](CCCCC)C(=O)N[C@H](C)C(=O)N(C)[C@@H](CCCCC)C(=O)N[C@H](C)C(=O)N(C)[C@@H](CCCCC)C(=O)N(C)[C@H](C)C(=O)N1C — log Papp (PAMPA, HPLC-UV; 500 µM, pH 7.4): -5.83 ± 0.04
CC(C)[C@H](NC(=O)[C@@H](NC(=O)[C@H](CCCNC(=N)N)NC(=O)[C@H](CCCNC(=N)N)NC(=O)[C@H](CCCNC(=N)N)NC(=O)[C@H](CCC(N)=O)NC(=O)[C@H](CCCNC(=N)N)NC(=O)[C@H](CCCNC(=N)N)NC(=O)[C@H](CCCCN)NC(=O)[C@H](CCCCN)NC(=O)[C@H](CCCNC(=N)N)NC(=O)CN)[C@@H](C)O)C(=O)N[C@H](C(=O)N[C@@H](CO)C(=O)N1CCC[C@H]1C(=O)O)[C@@H](C)O — organ weight (ICR mice, female, brain; intranasal, 20 mg/kg daily, 4 weeks): 0.451 ± 0.067 g
COc1cnc2cccc(N3CCc4c(cc(Cn5ccnc5)cc4-c4cn(C)nc4C(F)(F)F)C3=O)c2c1 — body weight (BALB/c nude mice, MV4-11 xenograft; intraperitoneal, 100 mg/kg, day 14): 22.3 g and 22.8 g and 23.6 g and 24.2 g and 22.5 g and 20.6 g and 23.2 g and 25.7 g
C=Cc1c(C)c2cc3nc(c(CC(=O)[O-])c4[n-]c(cc5nc(cc1[n-]2)C(C)=C5CC)c(C)c4C(=O)[O-])C(CCC(=O)[O-])C3C.[Cu+2].[Na+].[Na+].[Na+] (stereo not shown) — serum cholesterol (Wistar rat, male; oral, 250 mg/kg daily, 28 days): 46.2 ± 5.78 mg/dL
C=CC(=O)Nc1cccc(Cn2ncc3cnc(Nc4cnn(CCOC)c4)nc32)c1 — serum total protein (Sprague-Dawley rat male, serum; oral, 180 mg/kg, day 28, 28-day subacute toxicity): 50.9 ± 11.8 g/L
Cc1cc(C(=O)Nc2nc3cccc(C)c3n2[C@H]2CCCCN(C(=O)/C=C/CN(C)C)C2)ccn1 — EC50 fold shift (Trypanosoma brucei; cell growth, Alamar Blue; 2T1 overexpressing Tb927.8.7220; reference: parental 2T1): 0.65 fold and 1.52 fold
CC(C)=CCC/C(C)=C\CCn1cc(CC(P(=O)(O)O)P(=O)(O)O)nn1 — AUC(0-inf) (CD-1 mouse, plasma; intravenous, 0.5 mg/kg, single dose): 534 ± 32 ng·h/mL
CN(C)[C@H]1C[C@@]23CC[C@@]4(O2)C(=CC[C@]2(C)[C@@H](c5ccc6ccncc6c5)CC[C@H]24)C=C3[C@@H](O)[C@@H]1O — inhibition (MAST3 (Homo sapiens, UniProt O60307); ATP probe labelling, inhibitor, KiNativ profiling; 0.1 µM): -0.4%
O=c1c(-c2cnn(-c3ccccc3)c2)c(C(F)(F)F)oc2c(O)c(O)ccc12 — efflux ratio (Caco-2): 1.95
O=C1NC2(CC2)COc2ncc(F)cc2[C@H]2COCCN2c2ccn3ncc1c3n2 — serum triglycerides (Sprague-Dawley rat, female, serum; oral, 20 mg/kg/day, end of treatment, 4-week subacute toxicity): 0.45 ± 0.32 mmol/L
CC(C)(C)C(=O)OCOP(=O)(OCOC(=O)C(C)(C)C)C1CCCN(O)C1=O (stereo not shown) — GI50 (SF-295): 3.9 µM
CCn1ccc(-c2cc(-c3cnn(C)c3)cc([C@@H](C)NC(=O)c3cc(OCCN(C)C)ccc3C)c2)n1 — t1/2 (C57BL/6J mice, male, plasma; iv, 10 mg/kg): 2.76 h
CC[C@H](C)[C@H](NC(=O)[C@H](C)NC(=O)[C@H](CCCCN)NC(=O)[C@H](CCCCN)NC(=O)[C@@H](N)CCCNC(=N)N)C(=O)N[C@@H](CCCCN)C(=O)N[C@@H](CC(C)C)C(=O)N[C@H](C(=O)N[C@@H](CCCCN)C(=O)N[C@@H](CCCCN)C(=O)N[C@@H](CC(C)C)C(=O)N[C@H](C(=O)N[C@@H](CCCCN)C(=O)N[C@@H](CCCCN)C(=O)N[C@@H](CC(C)C)C(=O)N[C@@H](CCCCN)C(=O)N[C@@H](CCCCN)C(=O)N[C@@H](C)C(=O)N[C@@H](CC(C)C)C(=O)N[C@@H](CCCCN)C(=O)O)C(C)C)C(C)C — hemolysis (human red blood cells; 4 mg/L, 1 h, mean of replicates): 1.17%
Cc1cc(Oc2nc(N3CC[C@@H](c4ccncc4)C3)ncc2F)[nH]n1 — normalised growth (Mycobacterium tuberculosis; THP-1, H37Rv non-replicating; 0.03002 µM, day 4 plus 1): -5.3% and 0.265%
CC(C)C[C@@H]1NC(=O)[C@@H](Cc2c[nH]c3ccccc23)NC(=O)[C@H](CCCNC(=N)N)NC(=O)[C@@H](CCC(=O)O)NC(=O)[C@H](CCC(N)=O)NC(=O)[C@@H](CCC(=O)O)NC(=O)[C@H](CCCNC(=N)N)NC(=O)[C@@H](Cc2c[nH]c3ccccc23)NC1=O — cytokine level (Luminex, refers to: MIP-2 CCL2; LDLr-/- mice, Western diet, liver; dose not given, 4 weeks): 460 ± 110 pg/g tissue
CC[C@H](C)[C@H](NC(=O)[C@H](CCCCN)NC(=O)CNC(=O)[C@H](CC(C)C)NC(=O)[C@H](Cc1ccccc1)NC(=O)[C@H](CCCCN)NC(=O)[C@H](CO)NC(=O)[C@H](Cc1ccccc1)NC(=O)[C@H](Cc1c[nH]c2ccccc12)NC(=O)[C@H](CCC(N)=O)NC(=O)[C@@H](NC(=O)[C@H](Cc1ccccc1)NC(=O)CCCCCNC(=O)CN1CCN(CC(=O)O)CCN(CC(=O)O)CCN(CC(=O)O)CC1)C(C)C)C(=O)N[C@@H](CCC(=O)O)C(=O)N1CCC[C@H]1C(=O)N[C@@H](CC(=O)O)C(=O)N[C@H](C(=O)N[C@@H](CO)C(=O)N[C@@H](CCC(N)=O)C(=O)N[C@H](C(=O)N[C@@H](CCC(N)=O)C(=O)N[C@@H](CC(=O)O)C(=O)N1CCC[C@H]1C(=O)N[C@@H](CC(N)=O)C(=O)N[C@@H](CC(=O)O)C(=O)N[C@@H](CCC(N)=O)C(=O)N[C@@H](Cc1ccc(O)cc1)C(=O)N[C@@H](CCC(=O)O)C(=O)N1CCC[C@H]1C(=O)N[C@@H](Cc1ccccc1)C(=O)O)C(C)C)C(C)C [copper-64 labelled] — tissue uptake (C57BL/6 mice, large intestine; together with: LPS 3 mg/kg intratracheal): 4.45 ± 1.1 %ID/g
CC(C)[C@@H]1NC(=O)CNC(=O)[C@H](CC(N)=O)NC(=O)[C@H](CCCNC(=N)N)NC(=O)[C@H](Cc2ccc(O)cc2)NC(=O)[C@H](C(C)C)NC(=O)[C@@H](NC(=O)[C@@H](NC(=O)[C@H](CC(N)=O)NC(=O)[C@H](Cc2c[nH]c3ccccc23)NC(=O)[C@H](C)NC(=O)[C@H](Cc2ccccc2)NC(=O)CNC(=O)[C@H](CCCCN)NC(=O)[C@H](Cc2ccccc2)NC(=O)[C@H](Cc2ccccc2)NC(=O)[C@H](CCCCN)NC(=O)OCC2c3ccccc3-c3ccccc32)C(C)C)CSSC[C@@H](C(=O)N[C@@H](Cc2c[nH]cn2)C(=O)N[C@@H](CCCNC(=N)N)C(=O)N[C@@H](CCCNC(=N)N)C(=O)N[C@@H](C)C(=O)N[C@@H](CC(N)=O)C(N)=O)NC(=O)[C@H](C(C)C)NC(=O)[C@H](CCCNC(=N)N)NC1=O — blood urea nitrogen (ICR mice, serum; intraductal mammary, 5 mg/kg, day 5): 11.1 ± 0.49 mmol/L
